Assay results from different studies.
Each numbered part is a random draw from the data of one study; scales do not carry over between parts.

Series 1
Target: Histone acetyltransferase KAT6A, both winged helices, GST fusion (KAT6A, Homo sapiens, UniProt Q92794, residues 1-181)
Method: protein binding microarray
Form: double-stranded DNA, one strand shown
Medium: in vitro
Concentration: not given
Notes: 8-mer, flanks averaged, mean of 2 arrays, mostly near background
Relative to: not given
Direction: higher = stronger binding
Residues (chain): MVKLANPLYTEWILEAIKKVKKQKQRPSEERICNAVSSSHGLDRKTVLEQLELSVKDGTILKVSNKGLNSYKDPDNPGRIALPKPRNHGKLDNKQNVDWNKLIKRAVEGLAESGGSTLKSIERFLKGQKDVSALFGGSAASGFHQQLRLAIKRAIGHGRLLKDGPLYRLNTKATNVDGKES
Strand | E-score
CAAAACCG | 0.105
AGCCTGGG | -0.108
ATCATATG | -0.045
ATACCCAC | -0.146
GATGTCTA | -0.015
ACTCTACA | -0.167
CTCGAGAG | -0.0503
CATAACTC | -0.00804

Series 2
Target: Replicase polyprotein 1ab, main protease (rep, Severe acute respiratory syndrome coronavirus 2, UniProt P0DTD1)
Effect on: enzyme activity
Mode: inhibitor
Concentration: 20 µM
Notes: hit confirmation
SMILES | inhibition
O=C(O)C=C1NN(Cc2nc3cc(C(F)(F)F)ccc3s2)C(=O)c2ccccc21 | 12.5%
O=C(NC1CCCCC1)N(CCCl)[N+][O-] | 52.5%
O=C(O[C@@H]1Cc2c(O)cc(O)cc2O[C@@H]1c1ccc(O)c(O)c1)c1cc(O)c(O)c(O)c1 | 3.9%
CCN(CC)c1ccc(C(=C2C=CC(=[N+](CC)CC)C=C2)c2ccccc2)cc1 | 86.9%

Series 3
Target: Replicase polyprotein 1ab, polymerase (rep, Severe acute respiratory syndrome coronavirus 2, UniProt P0DTD1)
Effect on: enzyme activity
Mode: inhibitor
Concentration: 20 µM
Structure (SMILES) | inhibition [%]
C[C@H]1[C@H](OC(=O)CCC(=O)O)O[C@@H]2O[C@@]3(C)CC[C@H]4[C@H](C)CC[C@@H]1[C@@]24OO3 | -2.71
CCCCCCCCCCCC[N+](C)(C)CCOc1ccccc1 | 13
O=C1NC(=O)/C(=C/c2cccc(C(F)(F)F)c2)S1 | -1.19
CN(C)CCCNC(=O)c1ccc(-c2cc(O)c3ncccc3c2)cc1 | 4.04
CN1C(=O)C(F)=C[C@]2(C)[C@H]3CC[C@]4(C)[C@@H](C(=O)NCc5nc6cccnc6[nH]5)CC[C@H]4[C@@H]3CC[C@@H]12 | -3.39
CC(C)(O/N=C(\C(=O)N[C@@H]1C(=O)N2C(C(=O)[O-])=C(C[n+]3ccccc3)CS[C@H]12)c1csc(N)n1)C(=O)O | -4.81
OC[C@H]1O[C@H](O[C@H]2O[C@H](CO)[C@@H](O)[C@H](O)[C@H]2O)[C@H](O)[C@@H](O)[C@@H]1O | -1.34
C[C@]12CCC(=O)C[C@@H]1CC[C@@H]1[C@@H]2CC[C@]2(C)[C@@H](O)CC[C@@H]12 | -0.47
CN1CCC2=C(C1)C(c1ccccc1)c1ccccc12 (centres unmarked) | 0.65
CC(=O)NCC(=O)N1[C@@H]2CC[C@H]1c1ccc(Nc3ncc(C(F)(F)F)c(NC4CCC4)n3)cc12 | -2.47
COc1cc2c(cc1O)C(CCc1ccc(Cl)cc1)N(C)CC2 (centres unmarked) | 4.61
Cc1[nH]nc2ccc(-c3cncc(OC[C@@H](N)Cc4ccccc4)c3)cc12 | 8.76
CCN1/C(=C/C(C)=O)Sc2ccc(OC)cc21 | -0.81
CC(=O)NCC(=O)N[C@H](CCC(=O)O)C(=O)O | -3.99
Cc1noc(NS(=O)(=O)c2cccc3c(N(C)C)cccc23)c1C | -2.77
CC(=O)O[C@H]1C[C@@]2(C)[C@@H](C[C@@H](O)[C@H]3[C@@]4(C)CC[C@@H](O)[C@@H](C)[C@@H]4CC[C@@]32C)/C1=C(\CCC=C(C)C)C(=O)O | 18.6
COc1ccc(-c2cc(=O)c3c(O)c(OC)c(O)cc3o2)cc1OC | 24.6
CCCn1c(=O)c2[nH]c(-c3ccccc3)nc2n(CCC)c1=O | 0.61
COc1ncnc(NS(=O)(=O)c2ccc(N)cc2)c1OC | 4.11
CC(=O)N[C@H]1[C@H]([C@H](O)[C@H](O)CO)OC(C(=O)O)=C[C@@H]1NC(=N)N | -3.59
CC(C)c1ccc(-c2cc(=O)c3ccccc3o2)cc1 | -4.58
C1CCC(N=C(NC23CC4CC(CC(C4)C2)C3)N2CCOCC2)CC1 | -12.9
Cn1c(Nc2ccc(C(F)(F)F)cc2)nc2cc(Oc3ccnc(-c4ncc(C(F)(F)F)[nH]4)c3)ccc21 | -1.44
CN(CCOc1ccc(-c2ccc3c(c2)OCO3)cc1C(C)(C)C)CC(=O)O | 14.2
FC(F)(F)c1cc(NC(=S)Nc2ccc(Br)cc2-c2nn[nH]n2)cc(C(F)(F)F)c1 | 11.6

Series 4
Target: Interferon regulatory factor 5, full length, phosphomimetic (IRF5, Homo sapiens, UniProt Q13568-2, residues 1-514, K96S/S451D/S453D/S456D/S462D)
Method: protein-binding microarray
Form: double-stranded DNA, one strand shown
Medium: in vitro
Concentration: 250 nM
Notes: 60-bp whole probe
Added: salmon DNA 0.4 mg/ml
Relative to: random background probes
Direction: higher = stronger binding
Shared flanks, not repeated: GCCTAGCAC … GTCTTGATTCGCTTGACGCTGCTG
Strand | log fluorescence
TTAGATATCAGGTTTCGATTAGTGCTA | 7.59 z-score
GACGATTTGAGTTCCGAGACGTGCTAG | -0.172 z-score
TTAGATTTCGTGTATCGATTAGTGCTA | 4.61 z-score
TCACCTCCAGGTTCTCTGACTGTGCTA | -0.282 z-score
AACGGACTGGGTTTCGGGACGTGCTAG | 2.35 z-score
TTAGGTTTCTGACTGGGTTAGTGCTAG | 0.714 z-score
GTAGAACTGGGGACTGGATTAGTGCTA | -0.604 z-score
GACGATCTCCTACTGCTGACGTGCTAG | -0.0243 z-score

Series 5
Target: RNA binding protein fox-1 homolog 2, RRM domain, GST-SBP tag (RBFOX2, Homo sapiens, UniProt O43251-10, residues 100-194)
Method: RNA Bind-n-Seq
Form: RNA
Medium: in vitro
Concentration: 365 nM
Notes: natural RNA segment, single round, ends assumed
Relative to: no-protein control
Direction: higher = stronger binding
Residues (chain): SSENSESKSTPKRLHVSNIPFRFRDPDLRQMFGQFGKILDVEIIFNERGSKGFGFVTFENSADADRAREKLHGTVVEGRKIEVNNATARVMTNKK
Strand | RBNS enrichment (R)
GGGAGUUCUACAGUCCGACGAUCGCUCCAAGGAUGUGUUGGACUCUGUGCUCCAGUGGGGCACUGGCUGCACGUGGGUCCUUGGAGAUGCGUGACCCAUGUCUCUGGCUGGUAAUGUUGCCUGCAGCCCACAUUGGAAUUCUCGGGUGCCAA | 2.78
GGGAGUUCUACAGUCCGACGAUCGUGGCCCAUAACUUGAAGGAAAAGUUUAAAGACAGUUCAAUUUAAUCAUCAGAAUGCAUUCUUUUUUUUUUCGGAGACGGAGUUUCACUCUUGCUGCCCAGGCUGGAGUGUGGAAUUCUCGGGUGCCAA | 0.474
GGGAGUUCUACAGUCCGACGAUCCCUGCUUCCUGGUCCAGAGCCUCCCUCCAGUGACUGUGGAGCCUGAGAAGGCCCCCGGGCCCCAGCAUGGGCCCCGAGCCUUGGAGGAGCACUGGCAGUUGGUGGCAGUGUGGAAUUCUCGGGUGCCAA | 0.339
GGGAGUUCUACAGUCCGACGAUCCAGCAGCUGUGGCCAGGAGGAAGCAGGUUGAUUUAGAGAGGGCCCUUGGGACCUGGUUUGGGUGAGGGACCACCAGGGAGCCCAUGCUCUAUGGCUCCCUUCCCUUCUUAUGGAAUUCUCGGGUGCCAA | 0.597
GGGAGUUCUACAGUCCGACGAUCAUAGGAUGCCAUCAGCCAUCGAGGGGGCGUCUUGCCUCUGCCCAUCGCUCCAGGAGUCUACGCUGUCGUGGAAAUUGUGCCCACCCCCAUCUGUGUGUUGUAGCCACUCAUGGAAUUCUCGGGUGCCAA | 0.265
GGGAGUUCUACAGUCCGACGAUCCAUGGAGAGCCUCUUAGUGAUUGUGUCUGCAUUGUUAUUGUGGAAGAUUUACCUUUUCUGUUGUACGUAAAGCUUAAAUUGCUUUUGUUGUGACUUUUUAGCCAGUGACUUGGAAUUCUCGGGUGCCAA | 0.339
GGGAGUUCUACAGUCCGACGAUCUGAAAAAUGGGUGCUAGUGGUAAUUGCUUUGUGGCUUAGUAAACUACUCUGUGGAUGAUUUCCAAACAUUCAAAGCCAAUAGCCUUGUUAUUAACAAGAUAUUUUGAGUAUGGAAUUCUCGGGUGCCAA | 0.417
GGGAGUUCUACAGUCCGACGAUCUCAGUUUACAUUUCUGAUACAUGCAGAUAGCAGAUGUCUUUAAAUGAAAUACAUGUAUAUUGUGUAUGGACUUAAUUAUGCACAUGCUCAGAUGUGUAGACAUCCUCCGUUGGAAUUCUCGGGUGCCAA | 0.322

For quick reference, copied from above (series 4):
Strand | log fluorescence
TTAGATATCAGGTTTCGATTAGTGCTA | 7.59 z-score
GACGATTTGAGTTCCGAGACGTGCTAG | -0.172 z-score
TTAGATTTCGTGTATCGATTAGTGCTA | 4.61 z-score
TCACCTCCAGGTTCTCTGACTGTGCTA | -0.282 z-score
AACGGACTGGGTTTCGGGACGTGCTAG | 2.35 z-score
TTAGGTTTCTGACTGGGTTAGTGCTAG | 0.714 z-score
